Experimental data from different studies.
Numbered parts are unrelated; each lists some results of a single study. Substitutions count along the parent as printed.

Sample 1
Target: CCNB2, cyclin fold, Cln2 fusion (human)
Technique: yeast growth competition, sequencing
Medium: yeast
Setting: weak parent motif
Reference: not given
Direction: higher = stronger binding
Measurement: normalised enrichment score
Starting sequence: ORC1 docking peptide (human); PRARKRLELGNLG; partner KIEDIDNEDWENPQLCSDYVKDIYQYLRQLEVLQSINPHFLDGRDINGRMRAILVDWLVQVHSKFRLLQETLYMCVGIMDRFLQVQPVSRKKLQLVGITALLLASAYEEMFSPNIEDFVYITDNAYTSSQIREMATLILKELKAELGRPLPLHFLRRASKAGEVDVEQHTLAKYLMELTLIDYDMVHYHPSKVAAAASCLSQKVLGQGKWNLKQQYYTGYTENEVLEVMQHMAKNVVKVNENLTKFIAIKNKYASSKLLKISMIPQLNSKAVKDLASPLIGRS
PRARKRLALGNLG [E8A]: 0.805
PRARLRLELGNLG [K5L]: 0.2
NRARKRLELGNLG [P1N]: 0.511
PRARKRLEFGNLG [L9F]: 0.448
PRARKRLCLGNLG [E8C]: 0.358
PRAIKRLELGNLG [R4I]: 0.195
PKARKRLELGNLG [R2K]: 0.274
PRARKRLELGNSG [L12S]: 0.298
PRARKRLELGNLW [G13W]: 0.184
PRARKRKELGNLG [L7K]: 1.71
PRARKRLDLGNLG [E8D]: 1.31
PRARKRLYLGNLG [E8Y]: 0.382
PRAHKRLELGNLG [R4H]: 0.613
PRTRKRLELGNLG [A3T]: 0.641
PRERKRLELGNLG [A3E]: 0.858
PRARYRLELGNLG [K5Y]: 0.114
PRKRKRLELGNLG [A3K]: 0.333
PRARKRLELGNLV [G13V]: 0.283

Sample 2
Target: Hepatocyte nuclear factor 3-alpha (Foxa1, Mus musculus, UniProt P35582, residues 1-468, full length assumed)
Technique: EMSA with sequencing
Form: double-stranded DNA, one strand shown
Medium: in vitro
Tested at: 10 and 20 nM
Setting: whole designed probe, mean of two concentrations, ends assumed
Reference: negative control set to 0
Direction: higher = stronger binding
Measurement: normalised bound fraction
Target sequence (chain): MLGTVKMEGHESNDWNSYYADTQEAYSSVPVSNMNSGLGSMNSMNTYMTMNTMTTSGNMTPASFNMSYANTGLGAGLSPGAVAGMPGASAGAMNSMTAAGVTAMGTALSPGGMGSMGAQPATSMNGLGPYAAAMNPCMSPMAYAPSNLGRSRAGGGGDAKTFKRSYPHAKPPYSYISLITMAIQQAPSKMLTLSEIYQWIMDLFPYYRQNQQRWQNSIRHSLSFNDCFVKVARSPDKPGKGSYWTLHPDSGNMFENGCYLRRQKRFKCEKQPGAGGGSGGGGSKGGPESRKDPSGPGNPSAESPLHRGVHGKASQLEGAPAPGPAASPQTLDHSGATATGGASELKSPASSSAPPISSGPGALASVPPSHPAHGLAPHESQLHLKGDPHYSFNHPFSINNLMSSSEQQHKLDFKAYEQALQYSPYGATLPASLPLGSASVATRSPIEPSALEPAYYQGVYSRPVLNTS
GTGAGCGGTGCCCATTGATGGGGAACATACAGCCTAGAACTCCTGGGCTCAAAAGATCCTCCCACCTCAGCCTCCTGAGTAGCTAGGACTACAGAGGCGCATGCCAACATGTGTGGCAATATTTACTTATTTATTTAGAAAAGAGGTCTCGCTTTGTTGCCCAGGCTAGTGTGCAGTGGCGCAATCTTGGCTCACTGCAACCTCTTCCTCCCAAGTTCATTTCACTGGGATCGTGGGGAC: 0.415 ratio
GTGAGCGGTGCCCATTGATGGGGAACAATATTTCAAACACTACGTACCCCAACTGACATTTGAGTAGCAGTTAAGTTCTTGGAACGCTGCCATTTTGGTTACGTAACATCTAGCTCATTGTAAACAGGATGAAATAGGGCAGTTAAAAGACTAATGGTCAGTGAAATCTACAACAGGAATGGAAAGAATTTTCCCCTTAAAAATTTGGAAATCCTTATTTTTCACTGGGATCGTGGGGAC: 0.217 ratio
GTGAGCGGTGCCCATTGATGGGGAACATTTGTAATTCTATTGGCAAATCCTTCTTTAGAAATTTTCCATGACAGACACGATGCTACCTTTGAAATTATGTGAACCATAGCAAATCAAAGTAAACAAATAATTCATCAACCAAAATATCAAAGTCCAACTGCCACCATTTAATTAGGCACATTTCATTAACTTTAGGAGCTCCTGGCTTAACTAAGCCAATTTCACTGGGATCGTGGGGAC: 0.461 ratio
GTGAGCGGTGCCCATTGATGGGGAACAAGTTGAATTGCTTGTCACGTACCATAGACTGAGGTCTGTGGCTGCAGTTGCCTGCCATTTCAGACAGATGATTCATCTTATAAACAGATTATGTAAATATGTTATTGATAAATACAGTATGGTACTGTAAATGTATTTTCTCTTTATGATTTTCTTTAAAATATTTTTCTTTCTCGGCCAGCACTTTGGGAGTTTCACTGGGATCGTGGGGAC: 0.289 ratio
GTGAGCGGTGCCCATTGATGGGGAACAAGAAAGAAATTTCCCATCCAGATTACAAAATTATTCCTGGTCAAAGGGGCCTTTATAAATGCAATTTCCTAATCCAATCAAAAGACCACAAAAGTAAACAGGGAATTTCTCTGCTTTGGTTTAAAATTGTTTGTTTAAAATTACATGTGTGTGTGTAGGTATATACACATATATAAATATATTATAGACACTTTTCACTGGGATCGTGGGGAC: 0.431 ratio
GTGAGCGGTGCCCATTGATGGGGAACTGTTTTAAGAGAAAAAGGGTTCCATGGGATCTCAAACTCTTGAGAGCTCTCTCTGTAGGTGGGAGTTCTGTCATGTGGGGTTTGTGCCCTTGTTATTTACAATGCAGAATGAACACGTGATATTTGACTCCACCTCTCCCCCACACCCAGACTGTGCCCACTTCCCCTCCTATGACATTTGGATCTTTCCATATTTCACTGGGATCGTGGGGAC: 0.144 ratio
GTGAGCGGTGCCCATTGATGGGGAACTACATAACTGAACAGTGATTAAATATTGACTAAGAGCCAGGAGTTGACAGCCATTGGCCTCACCCTGGTAAATGCTGATATATGATGCTGAATGTAATTTCAGAGCCATCCTCTCAGGGCCATAGTTTTGTTGGTTTTTTTTTTTTTTTTCTGTTGGGAGATGGGGAGCCAGCAAGTTGTAGCTTATGCTTGATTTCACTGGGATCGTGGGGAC: 0.14 ratio
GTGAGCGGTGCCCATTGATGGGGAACAGATTAAGTGTTACACTTCTTGCTTTGTTAGATAAATTGAACCACAGCAAATTTTACAAACATAATTTGTCCATATTTTCATAATAAACTCTATGTAATCTTCAGTTTTCTTGTTCCTTTAAAAACAAAATAATTCATATCAAACTGTCTTGAATAAGAAAGGCAAACCAGTCACAAGTCCACAATATTAAAGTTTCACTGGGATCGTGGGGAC: 0.00715 ratio

Sample 3
Target: ABI1, truncated, D143A, DHFR fusion (Arabidopsis thaliana)
Technique: DHFR PCA, deep sequencing
Medium: yeast
Setting: methotrexate growth selection, single substitutions
With: (+)-ABA 0.39 µM
Reference: wild-type fitted maximum
Direction: higher = stronger binding
Measurement: relative binding score
Starting sequence: PYL1, truncated, DHFR fusion (Arabidopsis thaliana); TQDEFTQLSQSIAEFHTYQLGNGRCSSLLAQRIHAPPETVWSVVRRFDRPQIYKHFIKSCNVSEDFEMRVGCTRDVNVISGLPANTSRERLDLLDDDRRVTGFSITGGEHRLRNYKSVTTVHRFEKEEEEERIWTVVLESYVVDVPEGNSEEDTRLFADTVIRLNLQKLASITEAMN; partner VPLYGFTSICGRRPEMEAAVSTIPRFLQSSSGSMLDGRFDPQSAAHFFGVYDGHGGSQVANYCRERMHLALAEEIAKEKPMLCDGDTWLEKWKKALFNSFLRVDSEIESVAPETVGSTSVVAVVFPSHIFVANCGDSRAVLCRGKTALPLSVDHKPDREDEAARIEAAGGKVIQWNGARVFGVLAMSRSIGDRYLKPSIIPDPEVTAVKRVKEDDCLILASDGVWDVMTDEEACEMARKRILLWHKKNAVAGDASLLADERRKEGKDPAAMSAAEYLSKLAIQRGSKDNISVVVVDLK
T160H: 5.98%
S11N: 10.6%
S87F: 25%
I172Y: 1.52%
N22H: 49.9%
T73H: 42.9%
R46K: 15.4%
E174W: -3.22%
S80A: 10.1%
V76Q: 10.2%
I79E: 9.02%
G71C: -3.71%
F15M: 0.464%
S150P: 8.91%

Single results of other studies
PhoQ, residues 284 288 289 292 302 303 WVSSAF  fold induction (PhoP, residues 12 14 15 18 19 NMSFL (Escherichia coli, UniProt P23836); Sort-seq, refers to: YFP reporter; E. coli; PhoQ-PhoP variant library, with: 10 µM Mg2+; reference: high Mg2+ state, higher = stronger signaling): 13.2

Excerpt of the above (sample 2):
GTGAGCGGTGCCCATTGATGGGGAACAAGTTGAATTGCTTGTCACGTACCATAGACTGAGGTCTGTGGCTGCAGTTGCCTGCCATTTCAGACAGATGATTCATCTTATAAACAGATTATGTAAATATGTTATTGATAAATACAGTATGGTACTGTAAATGTATTTTCTCTTTATGATTTTCTTTAAAATATTTTTCTTTCTCGGCCAGCACTTTGGGAGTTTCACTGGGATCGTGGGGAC: 0.289 ratio
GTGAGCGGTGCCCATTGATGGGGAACAATATTTCAAACACTACGTACCCCAACTGACATTTGAGTAGCAGTTAAGTTCTTGGAACGCTGCCATTTTGGTTACGTAACATCTAGCTCATTGTAAACAGGATGAAATAGGGCAGTTAAAAGACTAATGGTCAGTGAAATCTACAACAGGAATGGAAAGAATTTTCCCCTTAAAAATTTGGAAATCCTTATTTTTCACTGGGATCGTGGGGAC: 0.217 ratio
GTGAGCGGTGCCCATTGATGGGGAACAGATTAAGTGTTACACTTCTTGCTTTGTTAGATAAATTGAACCACAGCAAATTTTACAAACATAATTTGTCCATATTTTCATAATAAACTCTATGTAATCTTCAGTTTTCTTGTTCCTTTAAAAACAAAATAATTCATATCAAACTGTCTTGAATAAGAAAGGCAAACCAGTCACAAGTCCACAATATTAAAGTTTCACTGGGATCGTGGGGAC: 0.00715 ratio
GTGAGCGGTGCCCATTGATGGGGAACATACAGCCTAGAACTCCTGGGCTCAAAAGATCCTCCCACCTCAGCCTCCTGAGTAGCTAGGACTACAGAGGCGCATGCCAACATGTGTGGCAATATTTACTTATTTATTTAGAAAAGAGGTCTCGCTTTGTTGCCCAGGCTAGTGTGCAGTGGCGCAATCTTGGCTCACTGCAACCTCTTCCTCCCAAGTTCATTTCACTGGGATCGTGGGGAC: 0.415 ratio
